{"data": "Measured values gathered from unrelated publications", "note": "A part holds a random share of what one study measured. Values joined by “and” are separate records of one study, mostly repeats; a detail may differ.", "chain of UniProt Q9Y6M4 (whole entry, looked up)": "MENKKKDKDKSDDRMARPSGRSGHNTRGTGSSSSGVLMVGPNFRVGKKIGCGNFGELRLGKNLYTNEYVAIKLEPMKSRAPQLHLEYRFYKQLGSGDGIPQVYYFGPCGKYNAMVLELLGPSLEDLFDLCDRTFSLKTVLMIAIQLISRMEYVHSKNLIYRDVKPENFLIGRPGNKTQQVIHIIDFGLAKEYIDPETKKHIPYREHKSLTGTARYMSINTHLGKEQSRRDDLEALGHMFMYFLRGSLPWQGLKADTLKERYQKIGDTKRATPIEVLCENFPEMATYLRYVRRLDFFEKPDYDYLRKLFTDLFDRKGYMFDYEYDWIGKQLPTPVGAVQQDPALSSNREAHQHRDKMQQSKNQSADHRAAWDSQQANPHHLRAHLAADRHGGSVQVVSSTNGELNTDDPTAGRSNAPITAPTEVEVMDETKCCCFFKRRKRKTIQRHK", "chain of UniProt Q12852 (whole entry, looked up)": "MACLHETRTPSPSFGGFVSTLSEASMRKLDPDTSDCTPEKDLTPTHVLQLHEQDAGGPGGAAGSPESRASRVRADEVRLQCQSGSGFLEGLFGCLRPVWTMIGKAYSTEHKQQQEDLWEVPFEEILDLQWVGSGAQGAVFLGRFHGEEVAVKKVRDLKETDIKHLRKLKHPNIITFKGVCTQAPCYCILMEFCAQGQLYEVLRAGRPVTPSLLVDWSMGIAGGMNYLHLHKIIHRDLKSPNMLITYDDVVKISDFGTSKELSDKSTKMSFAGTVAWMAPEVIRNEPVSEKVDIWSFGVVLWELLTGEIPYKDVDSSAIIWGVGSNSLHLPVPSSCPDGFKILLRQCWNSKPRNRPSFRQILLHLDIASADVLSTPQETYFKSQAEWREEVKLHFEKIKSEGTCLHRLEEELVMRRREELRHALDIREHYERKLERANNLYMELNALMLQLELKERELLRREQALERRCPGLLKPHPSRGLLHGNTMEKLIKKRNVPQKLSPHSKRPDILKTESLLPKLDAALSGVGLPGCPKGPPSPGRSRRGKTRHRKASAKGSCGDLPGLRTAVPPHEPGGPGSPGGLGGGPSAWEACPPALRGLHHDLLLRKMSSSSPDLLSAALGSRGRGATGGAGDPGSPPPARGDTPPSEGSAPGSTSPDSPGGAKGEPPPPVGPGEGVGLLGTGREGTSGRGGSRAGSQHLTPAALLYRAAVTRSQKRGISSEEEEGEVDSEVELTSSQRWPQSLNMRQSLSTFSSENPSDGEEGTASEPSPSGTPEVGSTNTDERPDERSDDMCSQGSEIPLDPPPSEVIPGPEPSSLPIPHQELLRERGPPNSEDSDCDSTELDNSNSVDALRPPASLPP", "chain of UniProt P16234 (whole entry, looked up)": "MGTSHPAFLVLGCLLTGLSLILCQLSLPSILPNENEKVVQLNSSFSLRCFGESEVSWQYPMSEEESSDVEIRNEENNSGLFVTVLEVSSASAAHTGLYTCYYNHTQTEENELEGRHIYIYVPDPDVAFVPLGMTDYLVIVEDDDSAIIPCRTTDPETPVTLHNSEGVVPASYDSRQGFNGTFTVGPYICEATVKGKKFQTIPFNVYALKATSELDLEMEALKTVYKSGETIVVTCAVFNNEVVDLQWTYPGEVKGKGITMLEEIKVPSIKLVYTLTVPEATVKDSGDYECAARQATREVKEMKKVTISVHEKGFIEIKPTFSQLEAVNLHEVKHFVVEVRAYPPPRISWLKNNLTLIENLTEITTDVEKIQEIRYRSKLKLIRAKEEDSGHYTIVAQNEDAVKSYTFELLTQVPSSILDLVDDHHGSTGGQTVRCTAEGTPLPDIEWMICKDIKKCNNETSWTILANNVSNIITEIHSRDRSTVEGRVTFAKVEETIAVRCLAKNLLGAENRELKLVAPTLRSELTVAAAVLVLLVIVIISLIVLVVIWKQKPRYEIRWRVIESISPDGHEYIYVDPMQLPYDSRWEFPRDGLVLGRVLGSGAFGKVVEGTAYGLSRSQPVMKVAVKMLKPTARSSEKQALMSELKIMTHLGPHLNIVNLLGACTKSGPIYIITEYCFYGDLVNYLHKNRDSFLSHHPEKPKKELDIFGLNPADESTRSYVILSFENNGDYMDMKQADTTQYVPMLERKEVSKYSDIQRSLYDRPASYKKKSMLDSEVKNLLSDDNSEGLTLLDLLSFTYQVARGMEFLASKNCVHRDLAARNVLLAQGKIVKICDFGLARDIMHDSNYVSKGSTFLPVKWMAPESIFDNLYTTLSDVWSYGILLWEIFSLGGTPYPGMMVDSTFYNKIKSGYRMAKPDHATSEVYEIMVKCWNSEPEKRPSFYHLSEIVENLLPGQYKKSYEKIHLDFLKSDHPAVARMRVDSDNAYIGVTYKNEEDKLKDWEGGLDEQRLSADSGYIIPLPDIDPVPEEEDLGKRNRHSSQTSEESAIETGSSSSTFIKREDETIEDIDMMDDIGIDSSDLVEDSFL", "chain of UniProt Q9UEE5 (whole entry, looked up)": "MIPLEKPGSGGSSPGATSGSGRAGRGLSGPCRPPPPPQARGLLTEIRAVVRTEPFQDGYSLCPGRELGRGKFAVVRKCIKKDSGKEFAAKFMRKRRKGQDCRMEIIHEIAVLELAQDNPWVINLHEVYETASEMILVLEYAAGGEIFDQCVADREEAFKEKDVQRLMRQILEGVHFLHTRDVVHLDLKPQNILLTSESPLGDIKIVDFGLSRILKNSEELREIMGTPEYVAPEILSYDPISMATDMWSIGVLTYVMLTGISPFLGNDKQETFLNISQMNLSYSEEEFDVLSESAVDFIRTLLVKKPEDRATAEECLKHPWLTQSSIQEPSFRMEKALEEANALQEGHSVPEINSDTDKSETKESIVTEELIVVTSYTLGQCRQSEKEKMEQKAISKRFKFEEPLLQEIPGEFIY"}
{"data": "Series 1", "Structure (SMILES)": "CCC(=O)N1CCN(c2nc(OC[C@@H]3CCCN3C)nc3c2CCN(c2cccc4cccc(Cl)c24)C3)C[C@@H]1CC#N", "observed": "binding", "mode": "competitor", "method": "NanoBRET", "cell line": "HEK293", "KRAS Q61R": "GTPase KRas (KRAS, Homo sapiens, UniProt P01116, Q61R)", "KRAS G13D": "GTPase KRas (KRAS, Homo sapiens, UniProt P01116, G13D)"}
{"target": "GTPase KRas (KRAS, Homo sapiens, UniProt P01116, G12D)", "tested at": "137 nM", "normalized BRET": "97.4% and 99.5% and 96.8%"}
{"target": "KRAS Q61R", "tested at": "15.2 nM", "normalized BRET": "109% and 101% and 105%"}
{"target": "KRAS G13D", "tested at": "412 nM", "normalized BRET": "81.3% and 69.5% and 69.4%"}
{"target": "KRAS G13D", "tested at": "45.7 nM", "normalized BRET": "85.9% and 101% and 90.2%"}
{"target": "KRAS G13D", "tested at": "5.08 nM", "normalized BRET": "97.2% and 102% and 94.7%"}
{"target": "KRAS G13D", "tested at": "137 nM", "normalized BRET": "92.6% and 80.9% and 83.7%"}
{"target": "KRAS Q61R", "tested at": "137 nM", "normalized BRET": "100% and 107% and 103%"}
{"target": "KRAS G13D", "tested at": "1.69 nM", "normalized BRET": "106% and 98.7% and 92%"}
{"data": "Series 2", "organism": "Sarcocystis neurona", "observed": "parasite growth", "tested at": "10 µM"}
{"SMILES": "CC(C)(C(=O)c1cccnc1)c1cccnc1", "inhibition [%]": -31.3}
{"SMILES": "Oc1c(Cl)cc(Cl)c2cccnc12", "inhibition [%]": 96.3}
{"SMILES": "CN(CCCN1c2ccccc2CCc2ccccc21)CC(=O)c1ccc(Cl)cc1", "inhibition [%]": 4.4}
{"SMILES": "Cc1cccc(CN2CCN(C(c3ccccc3)c3ccc(Cl)cc3)CC2)c1.Cl.Cl (stereo not drawn)", "inhibition [%]": -20}
{"SMILES": "Nc1ccc(S(=O)(=O)c2ccc(N)cc2)cc1", "inhibition [%]": -22.6}
{"SMILES": "Cc1nc2ccccn2c(=O)c1CCN1CCC(C(=O)c2ccc(F)cc2)CC1", "inhibition [%]": 26.2}
{"SMILES": "CC(C)(C(=O)O)c1ccc(C(O)CCCN2CCC(C(O)(c3ccccc3)c3ccccc3)CC2)cc1 (stereo not drawn)", "inhibition [%]": -28.6}
{"SMILES": "OC(c1cc(C(F)(F)F)nc2c(C(F)(F)F)cccc12)C1CCCCN1 (stereo not drawn)", "inhibition [%]": 13.8}
{"SMILES": "CC(=O)OCC(=O)[C@@]1(O)CC[C@H]2[C@@H]3CCC4=CC(=O)CC[C@]4(C)[C@H]3[C@@H](O)C[C@@]21C", "inhibition [%]": 5.2}
{"SMILES": "CC1=C(C/C=C(\\C)CCC[C@H](C)CCC[C@H](C)CCCC(C)C)C(=O)c2ccccc2C1=O", "inhibition [%]": -24.4}
{"SMILES": "Cc1c(O)c(=O)ccn1C", "inhibition [%]": -21.8}
{"SMILES": "N#Cc1ccc(C(c2ccc(C#N)cc2)n2cncn2)cc1", "inhibition [%]": -27.7}
{"SMILES": "Clc1ccccc1C(c1ccccc1)(c1ccccc1)n1ccnc1", "inhibition [%]": 53.8}
{"SMILES": "CC(C)NCC(O)c1cc(O)cc(O)c1 (stereo not drawn)", "inhibition [%]": -23}
{"SMILES": "CC(=O)[C@]1(O)Cc2c(O)c3c(c(O)c2[C@@H](O[C@H]2C[C@H](N)[C@H](O)[C@H](C)O2)C1)C(=O)c1ccccc1C3=O", "inhibition [%]": 98.1}
{"SMILES": "Cc1nccn1CC1CCc2c(c3ccccc3n2C)C1=O.Cl (stereo not drawn)", "inhibition [%]": -20.1}
{"SMILES": "O=c1[nH]c(=O)n([C@H]2C[C@H](O)[C@@H](CO)O2)cc1F", "inhibition [%]": 42.7}
{"data": "Series 3", "SMILES": "CS(=O)(=O)NCC[C@H](NC(=O)c1cncc2c1cnn2-c1ccc(F)cc1)c1ccnc(S(C)(=O)=O)c1", "method": "competition with immobilised ligand", "tested at": "1 µM"}
{"target": "Fibroblast growth factor receptor 3 (FGFR3, Homo sapiens, UniProt P22607)", "observed": "cell-free assay", "remaining binding [%]": 100}
{"target": "Dual specificity tyrosine-phosphorylation-regulated kinase 2 (DYRK2, Homo sapiens, UniProt Q92630)", "observed": "cell-free assay", "remaining binding [%]": 91}
{"target": "Tyrosine-protein kinase Fgr (FGR, Homo sapiens, UniProt P09769)", "observed": "cell-free assay", "remaining binding [%]": 100}
{"target": "Mitogen-activated protein kinase kinase kinase 12 (MAP3K12, Homo sapiens, UniProt Q12852)", "observed": "cell-free assay", "remaining binding [%]": 82}
{"target": "Calcium/calmodulin-dependent protein kinase type 1G (CAMK1G, Homo sapiens, UniProt Q96NX5)", "observed": "cell-free assay", "remaining binding [%]": 100}
{"target": "Serine/threonine-protein kinase Chk2 (CHEK2, Homo sapiens, UniProt O96017)", "observed": "cell-free assay", "remaining binding [%]": 77}
{"target": "Serine/threonine-protein kinase DCLK1 (DCLK1, Homo sapiens, UniProt O15075)", "observed": "cell-free assay", "remaining binding [%]": 94}
{"target": "Platelet-derived growth factor receptor alpha (PDGFRA, Homo sapiens, UniProt P16234)", "observed": "cell-free assay", "remaining binding [%]": 100}
{"target": "Casein kinase I isoform gamma-3 (CSNK1G3, Homo sapiens, UniProt Q9Y6M4)", "observed": "cell-free assay", "remaining binding [%]": 96}
{"target": "Phosphatidylinositol 3-kinase C2 domain-containing subunit gamma (PIK3C2G, Homo sapiens, UniProt O75747)", "observed": "cell-free assay", "remaining binding [%]": 86}
{"target": "Tyrosine-protein kinase ABL1, non-phosphorylated (ABL1, Homo sapiens, UniProt P00519, F317I)", "observed": "binding", "remaining binding [%]": 85}
{"target": "Receptor-type tyrosine-protein kinase FLT3 (FLT3, Homo sapiens, UniProt P36888, F691L/ITD)", "observed": "cell-free assay", "remaining binding [%]": 99}
{"target": "Serine/threonine-protein kinase tousled-like 2 (TLK2, Homo sapiens, UniProt Q86UE8)", "observed": "cell-free assay", "remaining binding [%]": 100}
{"target": "Serine/threonine-protein kinase 17A (STK17A, Homo sapiens, UniProt Q9UEE5)", "observed": "cell-free assay", "remaining binding [%]": 100}
{"target": "NUAK family SNF1-like kinase 1 (NUAK1, Homo sapiens, UniProt O60285)", "observed": "cell-free assay", "remaining binding [%]": 85}
{"target": "Serine/threonine-protein kinase RIO1 (RIOK1, Homo sapiens, UniProt Q9BRS2)", "observed": "cell-free assay", "remaining binding [%]": 85}
{"target": "Cyclin-dependent kinase 18 (CDK18, Homo sapiens, UniProt Q07002)", "observed": "cell-free assay", "remaining binding [%]": 100}
{"data": "Series 4", "target": "Tyrosine-protein kinase JAK2 (JAK2, Homo sapiens, UniProt O60674)", "observed": "enzyme activity", "mode": "inhibitor", "tested at": "0.5 µM", "baseline": "control", "chain of UniProt O60674 (whole entry, looked up)": "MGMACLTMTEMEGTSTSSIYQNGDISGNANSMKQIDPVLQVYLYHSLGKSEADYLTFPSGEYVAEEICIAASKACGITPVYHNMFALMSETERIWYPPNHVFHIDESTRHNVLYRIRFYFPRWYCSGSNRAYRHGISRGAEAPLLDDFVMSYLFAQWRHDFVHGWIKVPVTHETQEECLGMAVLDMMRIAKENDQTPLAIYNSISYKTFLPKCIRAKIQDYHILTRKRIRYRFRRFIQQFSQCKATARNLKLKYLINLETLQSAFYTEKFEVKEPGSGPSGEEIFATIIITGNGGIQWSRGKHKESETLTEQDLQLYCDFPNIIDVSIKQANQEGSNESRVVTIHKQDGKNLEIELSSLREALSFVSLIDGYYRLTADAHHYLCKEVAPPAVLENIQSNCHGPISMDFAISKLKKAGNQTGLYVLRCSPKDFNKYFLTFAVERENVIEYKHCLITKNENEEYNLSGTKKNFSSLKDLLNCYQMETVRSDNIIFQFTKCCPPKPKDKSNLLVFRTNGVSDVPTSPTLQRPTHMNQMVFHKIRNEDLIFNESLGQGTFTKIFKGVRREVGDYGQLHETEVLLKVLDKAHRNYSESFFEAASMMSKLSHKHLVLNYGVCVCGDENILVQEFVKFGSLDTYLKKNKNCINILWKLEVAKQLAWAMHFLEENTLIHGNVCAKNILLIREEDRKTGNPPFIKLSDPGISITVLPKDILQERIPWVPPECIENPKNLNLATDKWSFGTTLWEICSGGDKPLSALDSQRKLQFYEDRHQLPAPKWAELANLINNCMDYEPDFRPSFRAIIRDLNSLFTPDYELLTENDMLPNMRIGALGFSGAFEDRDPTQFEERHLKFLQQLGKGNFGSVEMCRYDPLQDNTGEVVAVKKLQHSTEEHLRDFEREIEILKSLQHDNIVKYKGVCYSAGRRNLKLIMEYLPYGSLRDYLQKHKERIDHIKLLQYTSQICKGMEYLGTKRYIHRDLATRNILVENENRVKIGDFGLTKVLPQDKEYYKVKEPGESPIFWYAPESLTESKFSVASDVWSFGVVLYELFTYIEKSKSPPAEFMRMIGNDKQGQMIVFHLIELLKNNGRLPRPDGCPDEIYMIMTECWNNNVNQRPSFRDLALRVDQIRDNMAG"}
{"Compound": "O=c1cc(-c2cccc3c2Sc2ccccc2S3)oc(N2CCOCC2)c1", "remaining activity": "105%"}
{"Compound": "COc1cc2ncnc(Nc3cccc(Cl)c3)c2cc1OC", "remaining activity": "97.4%"}
{"Compound": "COc1cc2ncnc(Nc3ccc(O)c(Br)c3)c2cc1OC", "remaining activity": "95%"}
{"Compound": "N#C/C(=C\\c1ccc(O)c(O)c1)C(=O)NCc1ccccc1", "remaining activity": "98.1%"}
{"Compound": "Cc1cc2ncc(-c3ccccc3)nc2cc1C", "remaining activity": "97.3%"}
{"Compound": "O=C1c2ccccc2-c2n[nH]c3cccc1c23", "remaining activity": "77.7%"}
{"Compound": "O=C(Nc1cccc(Nc2nccc(Nc3cccc(C(F)(F)F)c3)n2)c1)C1CC1", "remaining activity": "47.7%"}
{"Compound": "c1ccc(-c2[nH]ncc2-c2ccnc3ccccc23)nc1", "remaining activity": "107%"}
{"Compound": "O=C(NC(NC(=S)Nc1ccc(F)c([N+](=O)[O-])c1)C(Cl)(Cl)Cl)C(c1ccccc1)c1ccccc1 (stereo not drawn)", "remaining activity": "99.9%"}
{"Compound": "Cn1nc2c3c(cccc31)C(=O)c1ccccc1-2", "remaining activity": "95.9%"}
{"Compound": "CCOc1nc(NC(=O)Cc2cc(OC)ccc2OC)cc(N)c1C#N", "remaining activity": "101%"}
{"Compound": "CCN(CC)C(=O)c1ccc(Nc2nc(OCC3CCCCC3)c3[nH]cnc3n2)cc1", "remaining activity": "4.21%"}
